{"data": "Experimental data collected from several papers", "note": "Each line is one published result; not all experiments were run side by side. Several values in a cell are separate wells, animals, samples, runs or records. ± gives the spread as reported.", "chain of UniProt Q80VM9 (whole entry, looked up)": "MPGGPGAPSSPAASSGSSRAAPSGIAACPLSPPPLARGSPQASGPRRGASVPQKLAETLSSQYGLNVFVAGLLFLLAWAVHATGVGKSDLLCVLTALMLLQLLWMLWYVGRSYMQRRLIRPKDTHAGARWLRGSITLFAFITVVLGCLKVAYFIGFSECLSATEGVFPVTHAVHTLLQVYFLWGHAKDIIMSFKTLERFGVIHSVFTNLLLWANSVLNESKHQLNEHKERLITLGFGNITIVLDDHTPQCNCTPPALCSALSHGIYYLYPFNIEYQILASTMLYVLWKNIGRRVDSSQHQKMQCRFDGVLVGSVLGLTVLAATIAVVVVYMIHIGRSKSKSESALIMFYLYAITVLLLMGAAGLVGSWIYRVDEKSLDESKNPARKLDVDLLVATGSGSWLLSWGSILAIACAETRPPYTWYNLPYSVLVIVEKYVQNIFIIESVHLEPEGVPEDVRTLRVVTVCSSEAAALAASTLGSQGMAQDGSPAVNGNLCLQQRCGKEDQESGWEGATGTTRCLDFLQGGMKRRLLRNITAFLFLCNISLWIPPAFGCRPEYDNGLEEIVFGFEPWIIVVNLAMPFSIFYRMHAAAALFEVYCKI", "chain of UniProt Q8NER1 (whole entry, looked up)": "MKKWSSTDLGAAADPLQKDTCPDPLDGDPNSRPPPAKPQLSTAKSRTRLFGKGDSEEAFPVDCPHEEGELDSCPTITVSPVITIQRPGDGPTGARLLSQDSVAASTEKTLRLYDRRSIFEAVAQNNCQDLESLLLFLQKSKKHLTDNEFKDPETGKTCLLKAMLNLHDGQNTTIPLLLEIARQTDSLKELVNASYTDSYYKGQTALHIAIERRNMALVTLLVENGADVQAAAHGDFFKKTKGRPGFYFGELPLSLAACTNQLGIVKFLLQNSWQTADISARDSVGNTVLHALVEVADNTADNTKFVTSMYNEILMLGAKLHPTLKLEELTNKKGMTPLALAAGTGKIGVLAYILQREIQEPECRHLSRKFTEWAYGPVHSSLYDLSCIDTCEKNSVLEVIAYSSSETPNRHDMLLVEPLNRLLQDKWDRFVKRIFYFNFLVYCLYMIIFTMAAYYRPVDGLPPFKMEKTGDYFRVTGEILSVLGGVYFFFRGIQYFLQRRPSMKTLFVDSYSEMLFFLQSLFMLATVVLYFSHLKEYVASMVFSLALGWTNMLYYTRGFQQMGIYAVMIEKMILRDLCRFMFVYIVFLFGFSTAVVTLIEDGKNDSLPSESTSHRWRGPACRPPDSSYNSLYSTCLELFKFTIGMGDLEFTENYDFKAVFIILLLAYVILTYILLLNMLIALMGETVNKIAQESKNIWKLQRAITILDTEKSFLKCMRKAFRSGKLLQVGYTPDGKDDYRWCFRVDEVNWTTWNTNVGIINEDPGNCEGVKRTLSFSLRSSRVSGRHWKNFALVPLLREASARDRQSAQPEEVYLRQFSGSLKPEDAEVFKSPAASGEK", "chain of UniProt P22736 (whole entry, looked up)": "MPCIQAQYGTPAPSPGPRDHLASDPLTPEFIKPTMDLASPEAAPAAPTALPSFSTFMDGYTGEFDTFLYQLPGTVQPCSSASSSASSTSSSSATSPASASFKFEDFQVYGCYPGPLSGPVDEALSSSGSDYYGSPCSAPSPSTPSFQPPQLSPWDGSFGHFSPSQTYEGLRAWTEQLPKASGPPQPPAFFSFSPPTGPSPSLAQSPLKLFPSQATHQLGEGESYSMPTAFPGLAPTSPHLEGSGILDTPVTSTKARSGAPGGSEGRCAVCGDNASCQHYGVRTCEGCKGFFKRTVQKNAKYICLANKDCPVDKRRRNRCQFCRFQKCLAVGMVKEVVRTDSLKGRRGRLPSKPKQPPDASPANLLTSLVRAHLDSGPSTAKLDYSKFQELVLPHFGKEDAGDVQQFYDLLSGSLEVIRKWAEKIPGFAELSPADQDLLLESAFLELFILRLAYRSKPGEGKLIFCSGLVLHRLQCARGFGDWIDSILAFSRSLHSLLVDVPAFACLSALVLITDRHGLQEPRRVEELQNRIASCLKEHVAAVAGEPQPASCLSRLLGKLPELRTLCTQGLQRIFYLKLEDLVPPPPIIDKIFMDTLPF", "chain of UniProt P11388 (whole entry, looked up)": "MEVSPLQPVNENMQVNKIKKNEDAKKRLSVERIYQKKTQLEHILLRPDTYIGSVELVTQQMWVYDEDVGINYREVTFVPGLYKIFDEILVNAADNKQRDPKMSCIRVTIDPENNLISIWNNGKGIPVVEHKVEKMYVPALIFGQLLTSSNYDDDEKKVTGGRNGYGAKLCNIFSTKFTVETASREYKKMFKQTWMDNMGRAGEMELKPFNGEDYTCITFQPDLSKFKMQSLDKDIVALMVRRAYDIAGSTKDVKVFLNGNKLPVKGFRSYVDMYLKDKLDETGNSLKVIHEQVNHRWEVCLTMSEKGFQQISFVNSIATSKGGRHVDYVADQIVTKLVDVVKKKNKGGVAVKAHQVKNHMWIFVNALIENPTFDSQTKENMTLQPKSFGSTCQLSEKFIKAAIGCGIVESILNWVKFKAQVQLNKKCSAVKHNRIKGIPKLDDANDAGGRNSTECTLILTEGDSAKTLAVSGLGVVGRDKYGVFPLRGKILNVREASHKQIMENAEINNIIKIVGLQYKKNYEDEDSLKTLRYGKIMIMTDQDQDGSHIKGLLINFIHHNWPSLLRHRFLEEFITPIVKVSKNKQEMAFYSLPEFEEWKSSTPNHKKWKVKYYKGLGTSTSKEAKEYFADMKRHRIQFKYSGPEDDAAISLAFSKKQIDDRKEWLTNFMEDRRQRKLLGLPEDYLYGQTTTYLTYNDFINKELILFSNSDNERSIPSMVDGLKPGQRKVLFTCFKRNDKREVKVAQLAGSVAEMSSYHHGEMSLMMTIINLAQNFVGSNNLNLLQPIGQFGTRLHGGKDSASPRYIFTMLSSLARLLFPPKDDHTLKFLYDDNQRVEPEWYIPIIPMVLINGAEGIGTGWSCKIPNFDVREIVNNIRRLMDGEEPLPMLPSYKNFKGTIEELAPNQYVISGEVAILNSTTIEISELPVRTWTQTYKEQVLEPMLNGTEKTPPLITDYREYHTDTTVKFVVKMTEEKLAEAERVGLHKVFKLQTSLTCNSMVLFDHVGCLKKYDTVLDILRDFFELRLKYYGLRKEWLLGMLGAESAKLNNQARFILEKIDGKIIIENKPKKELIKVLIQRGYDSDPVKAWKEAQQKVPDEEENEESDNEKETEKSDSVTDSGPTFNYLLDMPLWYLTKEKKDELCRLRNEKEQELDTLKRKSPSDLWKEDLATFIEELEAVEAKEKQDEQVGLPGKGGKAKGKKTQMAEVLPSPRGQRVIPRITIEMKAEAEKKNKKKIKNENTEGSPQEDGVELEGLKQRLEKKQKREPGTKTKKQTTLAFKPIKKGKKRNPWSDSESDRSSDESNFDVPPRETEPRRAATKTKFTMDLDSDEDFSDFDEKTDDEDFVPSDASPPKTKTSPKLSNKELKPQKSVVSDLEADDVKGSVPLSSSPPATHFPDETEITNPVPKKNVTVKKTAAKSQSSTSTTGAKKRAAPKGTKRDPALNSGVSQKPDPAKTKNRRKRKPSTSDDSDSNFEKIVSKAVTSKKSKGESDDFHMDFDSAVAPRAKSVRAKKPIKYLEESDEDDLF", "chain of UniProt Q96SW2 (whole entry, looked up)": "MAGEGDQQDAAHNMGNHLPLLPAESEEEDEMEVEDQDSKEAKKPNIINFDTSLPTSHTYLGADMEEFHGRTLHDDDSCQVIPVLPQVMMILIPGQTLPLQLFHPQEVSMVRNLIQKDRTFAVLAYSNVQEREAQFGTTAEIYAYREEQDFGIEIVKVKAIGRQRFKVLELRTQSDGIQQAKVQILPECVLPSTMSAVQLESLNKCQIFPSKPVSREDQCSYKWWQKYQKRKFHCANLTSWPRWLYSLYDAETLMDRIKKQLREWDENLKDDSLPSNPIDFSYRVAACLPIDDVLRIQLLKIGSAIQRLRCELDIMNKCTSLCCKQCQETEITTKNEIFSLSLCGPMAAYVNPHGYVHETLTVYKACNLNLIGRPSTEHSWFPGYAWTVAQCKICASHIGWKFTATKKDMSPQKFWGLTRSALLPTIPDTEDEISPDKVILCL", "chain of UniProt Q15059 (whole entry, unmodified, looked up)": "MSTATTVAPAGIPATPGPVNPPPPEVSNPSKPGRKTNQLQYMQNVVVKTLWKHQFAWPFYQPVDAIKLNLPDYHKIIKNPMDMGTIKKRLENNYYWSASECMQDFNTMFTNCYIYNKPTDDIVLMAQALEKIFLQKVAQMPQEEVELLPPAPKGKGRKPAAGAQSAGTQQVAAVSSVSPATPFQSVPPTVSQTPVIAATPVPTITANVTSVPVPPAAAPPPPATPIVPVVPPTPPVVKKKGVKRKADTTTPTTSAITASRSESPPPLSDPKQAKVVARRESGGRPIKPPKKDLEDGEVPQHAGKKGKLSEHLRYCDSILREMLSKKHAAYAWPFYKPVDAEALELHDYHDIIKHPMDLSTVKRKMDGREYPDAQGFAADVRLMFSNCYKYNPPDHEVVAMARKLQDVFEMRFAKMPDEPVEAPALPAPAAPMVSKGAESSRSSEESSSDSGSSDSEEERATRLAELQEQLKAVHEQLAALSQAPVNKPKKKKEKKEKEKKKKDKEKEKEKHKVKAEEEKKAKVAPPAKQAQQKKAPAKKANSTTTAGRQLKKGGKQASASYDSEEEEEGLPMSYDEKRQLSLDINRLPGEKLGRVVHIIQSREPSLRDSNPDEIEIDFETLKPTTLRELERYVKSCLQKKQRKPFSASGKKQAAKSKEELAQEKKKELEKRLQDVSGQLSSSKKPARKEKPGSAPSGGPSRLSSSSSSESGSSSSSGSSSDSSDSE", "chain of UniProt P40337 (whole entry, unmodified, looked up)": "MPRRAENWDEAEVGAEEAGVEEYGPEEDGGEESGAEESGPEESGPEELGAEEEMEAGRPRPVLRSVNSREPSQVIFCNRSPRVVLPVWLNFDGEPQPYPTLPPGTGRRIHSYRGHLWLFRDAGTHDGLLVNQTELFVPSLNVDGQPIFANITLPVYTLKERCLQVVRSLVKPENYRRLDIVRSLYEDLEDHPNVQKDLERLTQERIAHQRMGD"}
{"Compound": "O=C1c2ccccc2CCN1CCCCN1CCN(c2ccccn2)CC1", "target": "HTR5A (Homo sapiens, UniProt P47898)", "test": "radioligand binding", "conditions": "concentration not given, with: [3H]LSD", "endpoint": "inhibition", "result": "49.6%"}
{"Compound": "O=C1CCC(N2Cc3cc(Nc4noc5ccccc45)ccc3C2=O)C(=O)N1 (stereo not drawn)", "target": "Cereblon/Casein kinase I alpha (CSNK1A1/CRBN, Homo sapiens, UniProt P48729+Q96SW2)", "test": "degrader, live-cell HiBiT kinetic", "test system": "HEK293 LgBiT", "conditions": "10 µM", "endpoint": "degradation rate constant", "result": "3.5 h⁻¹"}
{"Compound": "COc1cc(CNC(=O)CCCC/C=C/C(C)C)ccc1O", "target": "TRPV1 (Homo sapiens, UniProt Q8NER1)", "test": "channel activation, FLIPR calcium", "test system": "HEK293T", "conditions": "0.247 µM", "how to read": "higher = more activation", "endpoint": "calcium response", "result": "17.9 a.u. and 15.8 a.u. and 11.6 a.u. and 11.8 a.u."}
{"Compound": "C#CCNS(=O)(=O)c1ccc(CCN(Cc2cc(Cl)ccc2OCCC)C(=O)c2csc3ccccc23)cc1", "target": "Nlrp3 (Mus musculus, UniProt Q8R4B8)", "test": "IL-1β release", "test system": "J774A.1", "conditions": "with: LPS, ATP", "how to read": "baseline: -label", "endpoint": "fold potency", "result": "2 fold"}
{"Compound": "Cc1nc(NC(=O)N2CCC[C@H]2C(N)=O)sc1-c1ccnc(C(C)(C)C(F)(F)F)c1", "target": "MAPK10 (Homo sapiens, UniProt P53779)", "test": "KINOMEscan", "conditions": "10 µM", "endpoint": "remaining binding", "result": "59%"}
{"Compound": "O=C(O)[C@@H]1CCCN1c1ncnc2[nH]cnc12 (racemic)", "target": "ATP-dependent RNA helicase DDX1 (Homo sapiens, UniProt Q92499)", "test": "binding, affinity selection mass spectrometry", "how to read": "baseline: other proteins in batch", "endpoint": "fold enrichment", "result": 1.17}
{"Compound": "NS(=O)(=O)c1ccc(Nc2nc(-c3ccc(F)cc3)c3ccccc3n2)cc1", "target": "Protein polybromo-1, bromodomain 5 (PBRM1, Homo sapiens, UniProt Q86U86)", "test": "bromodomain binding, BROMOscan", "conditions": "1000 nM", "how to read": "baseline: DMSO control", "endpoint": "remaining binding", "result": "75%"}
{"Compound": "Cc1ccc(C(=O)Nc2ccc3ccccc3c2)o1", "target": "Otop1 (Mus musculus, UniProt Q80VM9)", "test": "ion current, whole-cell voltage ramp", "conditions": "10 µM, with: NMDG bath solution", "endpoint": "reversal potential", "result": "49.5 mV and 54.8 mV and 50.7 mV and 59.2 mV and 64.3 mV"}
{"Compound": "O=c1nc(SCc2cc(F)cc(C(F)(F)F)c2)nc(SCc2ccc3nc(Cl)ccc3c2)[nH]1", "target": "TOP2A (Homo sapiens, UniProt P11388)", "test": "ATPase activity", "conditions": "15.6 µM, with: ATP 1 mM", "endpoint": "ATP hydrolysis rate", "result": "1.9 µM/min and 2.31 µM/min"}
{"Compound": "CCCCCCCCC(=O)c1cc(O)c(O)c(O)c1", "target": "Nuclear receptor subfamily 4 group A member 1 (NR4A1, Homo sapiens, UniProt P22736)", "test": "reporter gene, Gal4 hybrid reporter", "conditions": "10 µM", "how to read": "baseline: vehicle", "endpoint": "activation", "result": "1.64 fold"}
{"Compound": "COc1cc(/C=C/c2ccc(O)cc2)cc(OC)c1", "target": "O-methyltransferase (Sorghum bicolor, UniProt A0A1B6PFV1)", "conditions": "with: saturating SAM", "endpoint": "cooperativity factor", "result": 0.45}
{"Compound": "CC(=O)N[C@H](C(=O)N1C[C@H](O)C[C@H]1C(=O)NCc1ccc(-c2scnc2C)cc1)C(C)(C)SCCCCCCNC(=O)C[C@@H]1N=C(c2ccc(Cl)cc2)c2c(sc(C)c2C)-n2c(C)nnc21", "target": "VHL/BRD3, BD2; with Elongin B/C (Homo sapiens, UniProt P40337+Q15059)", "test": "ternary complex binding, ITC", "conditions": "25 °C, unit not given, with: VHL-ElonginB-ElonginC, PROTAC:Brd3^BD2", "how to read": "baseline: binary binding to VHL-ElonginB-ElonginC, positive = cooperative", "endpoint": "ΔpKd ternary minus binary", "result": "0.6 ± 0.1"}
{"note": "For quick reference, copied from above:"}
{"Compound": "CC(=O)N[C@H](C(=O)N1C[C@H](O)C[C@H]1C(=O)NCc1ccc(-c2scnc2C)cc1)C(C)(C)SCCCCCCNC(=O)C[C@@H]1N=C(c2ccc(Cl)cc2)c2c(sc(C)c2C)-n2c(C)nnc21", "target": "VHL/BRD3, BD2; with Elongin B/C (Homo sapiens, UniProt P40337+Q15059)", "test": "ternary complex binding, ITC", "conditions": "25 °C, unit not given, with: VHL-ElonginB-ElonginC, PROTAC:Brd3^BD2", "how to read": "baseline: binary binding to VHL-ElonginB-ElonginC, positive = cooperative", "endpoint": "ΔpKd ternary minus binary", "result": "0.6 ± 0.1"}
